# Published values of several laboratories.
# Values joined by “and” are separate records of one study, mostly repeats; a detail may differ. Numbers after ± are the reported error.
Structure (SMILES),cell line,assay,test system,conditions,how to read,endpoint,result
O=C(C[Se]C(=O)c1cc2ccccc2o1)Nc1cccc(C(F)(F)F)c1,"NCI60 prostate subpanel (PC-3, DU-145)","cell growth, inhibitor",,five-dose,,GI50,1.58 µM
CC[C@@H](C)[C@@H](NC(=O)[C@@H](Cc1ccc(O)cc1)NC(=O)[C@H]1CCCN1C(=O)[C@@H](CCCNC(=N)N)NC(=O)[C@H](N)Cc1c[nH]cn1)C(=O)N[C@H](C)C(=O)N[C@H](Cc1c[nH]cn1)C(=O)NCC(=O)NCC(=O)NCC(=O)N[C@@H](CCCCNC(=O)CCCC[C@@H]1SC[C@@H]2NC(=O)N[C@@H]21)C(N)=O,HEK293T-OFP cells,flow cytometry,,"concentration not given, together with: biotin-labelled peptide",,binding rate,0.25% and 0.39% and 0.4%
CC(C)c1ccc(N(C)c2ccc3c(c2)OCC[C@H]3CNc2cnccc2C(=O)O)cc1,NCI-H1436,"cell viability, CellTiter-Glo",,7 days,,IC50,0.00875 µM
COC(=O)c1cc(NC2=NC(=O)C(=Cc3ccc(N(C)C)cc3)S2)ccc1OC(C)=O,MCF7,"GC-MS, refers to: 3-Aminoisobutyric acid",,1 µM,baseline: DMSO,metabolite level,0.54 fold change
Cn1ncc2cc(-c3cncc(Cl)c3N3CCC4(CCNC4=O)CC3)ccc21,LS174T,"gene expression, microarray, refers to: SLC6A4 mRNA",,"concentration not given, 24 h",baseline: untreated cells,log2 fold change,2.15
CN1CCCNC(=O)c2cccc(c2)C(=O)NCCCN(C)CCCNc2cccc3c2C(=O)c2cccc(c2C3=O)NCCC1,SAS,"RNA-Seq, refers to: BAG1 mRNA",,"1 µM, 6 h",baseline: untreated cells,log2 fold change,-0.685
CCc1ccc(OCc2nnc(SC3CCCC3=O)n2C(C)c2ccccc2)cc1 (centres unmarked),HEK293T STF,"viability, PrestoBlue",,"10 µM, 24 h",,toxicity,8.16%
CNc1ncnc2c1ncn2C1OC(CO)C(O)C1O (centres unmarked),mock-transfected cells,"TGFα shedding, agonist",,100 nM,baseline: unstimulated vehicle control,AP-TGFα release,0.06% and 0.22% and 0.5%
Cc1cc(Cl)cc(-c2ccnc3cc(CN4C(=O)C5C(C4=O)C5(C)C)sc23)c1C[C@@H]1CNCCO1 (some centres unmarked),CHP-212 resistant subline R3,annexin V/PI flow cytometry,,"1 µM, 48 h",,viable cells,77.7% and 83.2% and 80.9%
[Cl-].[Cl-].[Ru+2].c1ccc(-c2ccccn2)nc1.c1ccc(-c2ccccn2)nc1.c1ccc2cc3nc4c5cccnc5c5ncccc5c4nc3cc2c1,SK-MEL-28,photocytotoxicity,,"visible light 400-700 nm, 100 J/cm2, oxygen 1%",,EC50,117 ± 2 µM
Cc1ncsc1-c1ccc(C(C)NC(=O)C2CC(O)CN2C(=O)C(NC(=O)CCCCCCCCCCN2CCCC(Nc3ncc(Cl)c(Nc4ccccc4S(=O)(=O)C(C)C)n3)C2)C(C)(C)C)cc1 (centres unmarked),22Rv1,"RNA-seq, refers to: ZNF248 mRNA",,concentration not given,baseline: DMSO,log2 fold change,-1.05
O=C(N1CCCC1)n1cc(-c2ccc(-c3ccccc3)cc2)nn1,mouse T-cells,"N-terminal labelling enrichment, refers to: Niban N-terminal peptides",,"1 nM, 6 h, single tryptic peptide",baseline: DMSO,SILAC ratio,1.52 and 1.3 and 0.81
CC1(C)CC[C@@]2(CO)C(=C3C=C[C@@H]4[C@@]5(C)CC[C@H](O)[C@@](C)(CO)[C@@H]5CC[C@@]4(C)[C@]3(C)C[C@@H]2O)C1,"HepG2, negative control siRNA","Western blot, refers to: PGC-1α",,"concentration not given, high dose, unit not given, together with: ethanol",baseline: β-actin,protein level,1.25 and 1.11 and 1.63
CSCC[C@H](NC(=O)[C@H](CCC(N)=O)NC(=O)[C@H](CCCCN)NC(=O)[C@H](CCCNC(=N)N)NC(=O)[C@H](Cc1ccc(O)cc1)NC(=O)[C@H](CCCNC(=N)N)NC(=O)[C@H](CO)NC(=O)[C@H](Cc1ccc(O)cc1)NC(=O)[C@H](CO)NC(=O)[C@H](CC(=O)O)NC(=O)[C@@H](NC(=O)[C@@H](N)Cc1ccccc1)[C@@H](C)O)C(=O)N[C@@H](C)C(=O)N[C@H](C(=O)N[C@@H](CCCCN)C(=O)N[C@@H](CCCCn1cc(C[C@H](NC(=O)CNC(=O)[C@H](CO)NC(=O)[C@H](CCCNC(=N)N)NC(=O)[C@H](CO)NC(=O)[C@H](CC(C)C)NC(=O)[C@H](CC(C)C)NC(=O)CNC(=O)[C@H](C)NC(=O)[C@H](CC(C)C)NC(=O)[C@H](CCCNC(=N)N)NC(=O)[C@H](Cc2c[nH]cn2)NC(=O)[C@@H](NC(=O)[C@@H](N)C(C)C)[C@@H](C)O)C(=O)N[C@H](C(=O)N[C@H](C(=O)N[C@@H](CCCCN)C(=O)N[C@@H](CC(N)=O)C(=O)N[C@@H](CC(N)=O)C(=O)N[C@@H](Cc2ccccc2)C(=O)N[C@H](C(=O)N2CCC[C@H]2C(=O)N[C@H](C(=O)N[C@@H](CC(N)=O)C(=O)N[C@H](C(=O)NCC(=O)N[C@@H](CO)C(=O)N[C@@H](CCCCN)C(=O)N[C@@H](C)C(=O)N[C@@H](Cc2ccccc2)C(N)=O)C(C)C)[C@@H](C)O)C(C)C)C(C)C)C(C)C)nn1)C(=O)N[C@@H](Cc1ccc(O)cc1)C(=O)N[C@@H](CC(C)C)C(=O)N[C@@H](C)C(=O)N[C@@H](C)C(=O)N[C@H](C(=O)N[C@@H](CC(C)C)C(=O)NCC(=O)N[C@@H](CCCCN)C(=O)N[C@@H](CCCNC(=N)N)C(=O)N[C@@H](Cc1ccc(O)cc1)C(=O)N[C@@H](CCCCN)C(=O)N[C@@H](CCC(N)=O)C(=O)N[C@@H](CCCNC(=N)N)C(=O)N[C@H](C(=O)N[C@@H](CCCCN)C(=O)N[C@@H](CC(N)=O)C(=O)N[C@@H](CCCCN)C(N)=O)C(C)C)C(C)C)C(C)C,transfected COS-7 cells,"cAMP accumulation, antagonist",,together with: PACAP-38,,A2,> 10 µM
COc1ccc(CNc2ccc3c(c2)S(=O)(=O)C=C3)cc1,T98G,resazurin,,"5 µM, 24 h",,viability,55%
CSC(=S)N/N=C(\C)c1ccc(Nc2nnc(-c3ccc(Cl)cc3)c3ccccc23)cc1,HepG2,"cell growth or viability, MTT",,"78 nM, 24 h",,viability,99.1%
NC1=C(Cl)C(=O)c2ccccc2C1=O,HuCC-A1,MTT,,,baseline: IC50 MRC-5 over IC50 HuCC-A1,selectivity index,1.32
CC(=O)Oc1ccccc1C(=O)[Se]CC(=O)Nc1cccc(C(F)(F)F)c1,NCI60 breast subpanel mean,cell growth,,,,TGI,12.2 µM
CCN(C(=O)c1cc(F)ccc1Oc1nncnc1N1CCC2(C1)CN([C@H](CCCN(C)CCOC)C(C)C)C2)C(C)C,Hs 729,cell growth,,72 h,,GI50,> 10 µM
O=C(N[C@@H](Cc1ccc(OCCCCC2CCNCC2)cc1)C(=O)O)c1nc2ccccc2o1.O=C(O)C(F)(F)F,platelets,impedance aggregometry,"human, diluted whole blood","25 nM, together with: ADP",baseline: untreated,ADP-induced aggregation,0.994 and 1.2 and 0.943 and 0.936 and 0.892
[Cl-].[Cl-].[Ru+2].c1cnc2c(c1)ccc1cccnc12.c1cnc2c(c1)ccc1cccnc12.c1csc(-c2ccc(-c3nc4c5cccnc5c5ncccc5c4[nH]3)s2)c1,SK-MEL-28,,,"normoxia, together with: visible light 100 J/cm2",baseline: dark EC50 over light EC50,phototherapeutic index,~200
Cc1cccc(-c2cccc(C)n2)n1.Cc1cccc(-c2cccc(C)n2)n1.F[P-](F)(F)(F)(F)F.F[P-](F)(F)(F)(F)F.[Ru+2].c1ccc(-c2nc3c4cccnc4c4ncccc4c3[nH]2)cc1,SK-MEL-28,,,"normoxia, together with: blue light 453 nm, 100 J/cm2",baseline: dark over light EC50,phototoxicity index,7
COc1ccccc1-c1ccncc1C(=O)Nc1nnc(OCc2ccc(Cl)cc2)s1,DLD-1 parental,,,"8 µM, mean of replicates",,colony count,70.5 and 80.5
C=CC(=O)N1[C@H](c2ccc3c(c2)OCO3)c2[nH]c3ccccc3c2C[C@@H]1C(=O)NC1CC1,rat DRG neurons,,,"0.01372 µM, 48 h, together with: vincristine 40 nM",,neuron degeneration,79.7% and 77.2%
CNS(=O)(=O)Nc1nccc(Cc2c(C)c3ccc(Oc4ncccc4F)cc3oc2=O)c1F,SNU-475,cell viability,,7 days,,IC50,> 1 µM
CO[C@@H]1[C@@H](OC(N)=O)[C@@H](O)[C@H](Oc2ccc3c(O)c(NC(=O)c4ccc(O)c(CC=C(C)C)c4)c(=O)oc3c2C)OC1(C)C,HCT-116 BRCA2 wild-type,,,"150 µM, replicate A",baseline: untreated,colony survival,94.2%
CC(C)Cc1ccc(C(C)C(=O)[Se]CC(=O)Nc2cccc(C(F)(F)F)c2)cc1 (centres unmarked),"NCI60 prostate subpanel (PC-3, DU-145)",cell growth,,"10 µM, 48 h, one-dose",,mean growth percent,-80.5%
CN1CCN(C(=O)c2ccc(-c3cc4c(N5CCC[C@H](C(=O)NCc6ccc(OC(F)(F)F)cc6)C5)ncnc4[nH]3)cc2)CC1,NCI-H3122,"cell growth or viability, MTT",,"0.008 µg/mL, 72 h",,inhibition,8.5%
CCCC(CCC)C(=O)OCc1cn(-c2cc3ccccc3oc2=O)nn1,SNB-19,,,"10 µM, CNS cancer cell line, NCI60",,growth percentage,96%
CCN(CC)CC(=O)Nc1cccc(-n2cc(-c3ccc4ccc(-c5cn(-c6cccc(NC(=O)CN(CC)CC)c6)nn5)cc4c3)nn2)c1,RCC4,"PCR angiogenesis array, refers to: CXCL10",,"5 x IC50, 6 h, normoxia",baseline: untreated,fold regulation,-1
O=C(C[Se]C(=O)C12CC3CC(CC(C3)C1)C2)Nc1cccc(C(F)(F)F)c1,"NCI60 prostate subpanel (PC-3, DU-145)","total growth inhibition, inhibitor",,five-dose,,mean TGI,7.49 µM
Cc1cccc(-c2cccc(C)n2)n1.Cc1cccc(-c2cccc(C)n2)n1.F[P-](F)(F)(F)(F)F.F[P-](F)(F)(F)(F)F.[Ru+2].c1cc2ccc3ccc(-c4nc5c6cccnc6c6ncccc6c5[nH]4)c4ccc(c1)c2c34,SK-MEL-28,,,"normoxia, together with: blue light 453 nm, 100 J/cm2",baseline: dark over light EC50,phototoxicity index,13

# Excerpt of the above:
Structure (SMILES),cell line,assay,test system,conditions,how to read,endpoint,result
CC(C)Cc1ccc(C(C)C(=O)[Se]CC(=O)Nc2cccc(C(F)(F)F)c2)cc1 (centres unmarked),"NCI60 prostate subpanel (PC-3, DU-145)",cell growth,,"10 µM, 48 h, one-dose",,mean growth percent,-80.5%
CN1CCN(C(=O)c2ccc(-c3cc4c(N5CCC[C@H](C(=O)NCc6ccc(OC(F)(F)F)cc6)C5)ncnc4[nH]3)cc2)CC1,NCI-H3122,"cell growth or viability, MTT",,"0.008 µg/mL, 72 h",,inhibition,8.5%
CCCC(CCC)C(=O)OCc1cn(-c2cc3ccccc3oc2=O)nn1,SNB-19,,,"10 µM, CNS cancer cell line, NCI60",,growth percentage,96%
CCN(CC)CC(=O)Nc1cccc(-n2cc(-c3ccc4ccc(-c5cn(-c6cccc(NC(=O)CN(CC)CC)c6)nn5)cc4c3)nn2)c1,RCC4,"PCR angiogenesis array, refers to: CXCL10",,"5 x IC50, 6 h, normoxia",baseline: untreated,fold regulation,-1
O=C(C[Se]C(=O)C12CC3CC(CC(C3)C1)C2)Nc1cccc(C(F)(F)F)c1,"NCI60 prostate subpanel (PC-3, DU-145)","total growth inhibition, inhibitor",,five-dose,,mean TGI,7.49 µM
